Results of several laboratories.
Compare with care: the assays were run in different laboratories. Values joined by “and” are separate records of one study, mostly repeats; a detail may differ. No end group written: not given here.
B1: rof 1-84 E17A (Escherichia coli, UniProt P0AFW8); chain MNDTYQPINCDDYDNLALACQHHLMLTLELKDGEKLQAKASDLVSRKNVEYLVVEAAGETRELRLDKITSFSHPEIGTVVVSES
B2: STX8 (Homo sapiens, UniProt Q9UNK0); chain MAPDPWFSTYDSTCQIAQEIAEKIQQRNQYERKGEKAPKLTVTIRALLQNLKEKIALLKDLLLRAVSTHQITQLEGDRRQNLLDDLVTRERLLLASFKNEGAEPDLIRSSLMSEEAKRGAPNPWLFEEPEETRGLGFDEIRQQQQKIIQEQDAGLDALSSIISRQKQMGQEIGNELDEQNEIIDDLANLVENTDEKLRNETRRVNMVDRKSASCGMIMVILLLLVAIVVVAVWPTN
B3: MSH4 S2A/S4A/S7A/S41A/T43A/S46A (Saccharomyces cerevisiae, UniProt P40965); sequence looked up; chain MAEANLASFISTNYFNLRSAANSSNSISKPSTKKSIRNQKAPANIASWALKKKTLQIAETTWENNEKDSTHSHYLMTGSMASRTATSLSRYSTNASLLGPSIDCVLCCIYEVPRDISTRIGLCIINCNTGQMYLSDFMDSQIYIRVVHKLQIYQPTEILIPSSSLAPTVSKLATMIKFNVAETVKIEEGSRKCFNSQDGLAAITKYLMDDTKKDLKIEEIIDKTFALCAASAAISYMEEIISKSSRNLNAFRKLRIQFEGTENTMLIDSKTVRGLELVENKLDKNGISLWKFLDTTSTKMGQRSLRNSILQPLTDRGSIEMRLEALEELKANDDLLQKLRLEMKSLPDLDKLFSRLLCINHSAIKPDQRINYVLLLKETLQSVKSLKDALNDQLIQSRLISETKKIFNNDAIMEIEKLINSCINEDCVWASSAIQLLNQRSYAVKSDSNGLLDVSRQIYKEVKEEFFREVEDLTAKNKINLDHNYDSARGFYLRIKRQEFTDDVATLPDVFISRTIKKNYIECTTLNIIKKNARLKEVMEEILLLSEETVDELLDKIATHISELFMIAEAVAILDLVCSFTYNLKENNYTIPIFTNNLLIRDSRHPLLEKVLKNFVPNTISSTKHSSSLQIITGCNMSGKSVYLKQVALICIMAQMGSGIPALYGSFPVFKRLHARVCNDSMELTSSNFGFEMKEMAYFLDDINTETLLILDELGRGSSIADGFCVSLAVTEHLLRTEATVFLSTHFQDIPKIMSKKPAVSHLHMDAVLLNDNSVKMNYQLTQKSVAIENSGIRVVKKIFNPDIIAEAYNIHSLLKIAKARTENEDSNGVVDQKTINQMKRIHNLVAILKECAGNEKEPLTLGKLKEINSDFIENFEE
B4: erenumab; V domains shown; sequence looked up; VH QVQLVESGGGVVQPGRSLRLSCAASGFTFSSFGMHWVRQAPGKGLEWVAVISFDGSIKYSVDSVKGRFTISRDNSKNTLFLQMNSLRAEDTAVYYCARDRLNYYDSSGYYHYKYYGMAVWGQGTTVTVSS; VL QSVLTQPPSVSAAPGQKVTISCSGSSSNIGNNYVSWYQQLPGTAPKLLIYDNNKRPSGIPDRFSGSKSGTSTTLGITGLQTGDEADYYCGTWDSRLSAVVFGGGTKLTVL
B5: UGT1A9 (Homo sapiens, UniProt O60656); chain GKLLVVPMDGSHWFTMRSVVEKLILRGHEVVVVMPEVSWQLGRSLNCTVKTYSTSYTLEDLDREFKAFAHAQWKAQVRSIYSLLMGSYNDIFDLFFSNCRSLFKDKKLVEYLKESSFDAVFLDPFDNCGLIVAKYFSLPSVVFARGILCHYLEEGAQCPAPLSYVPRILLGFSDAMTFKERVRNHIMHLEEHLLCHRFFKNALEIASEILQTPVTEYDLYSHTSIWLLRTDFVLDYPKPVMPNMIFIGGINCHQGKPLPMEFEAYINASGEHGIVVFSLGSMVSEIPEKKAMAIADALGKIPQTVLWRYTGTRPSNLANNTILVKWLPQNDLLGHPMTRAFITHAGSHGVYESICNGVPMVMMPLFGDQMDNAKRMETKGAGVTLNVLEMTSEDLENALKAVINDKSYKENIMRLSSLHKDRPVEPLDLAVFWVEFVMRHKGAPHLRPAAHDLTWYQYHSLDVIGFLLAVVLTVAFITFKCCAYGYRKCLGKKGRVKKAHKSKTH

Molecule | target or system | assay | system | conditions | scale | endpoint | value
TPDYLMQLMNDKKLMSSLPNFSGIFNHLERLLDEGISRVRKDMYNDTLNGSTEK (Qki 14-67 C35S/E48G (Mus musculus, UniProt Q9QYS9)) | itself | CD thermal melting |  | 50 µM, homodimer |  | melting temperature | < 15 °C
ULP1 (Saccharomyces cerevisiae, UniProt Q02724) | SUMO/eGFP His6-SUMO fused eGFP (Saccharomyces cerevisiae) | steady-state kinetics |  | pH 7.5, 30 °C, together with: DTT 1 mM |  | apparent KM | 3.34 mM
RRRRRRRC / CKNYKKTEV (CRIPT C-terminal PBM; cyclic; disulfide to poly-arginine) | DLG4 309-422 (Homo sapiens, UniProt P78352) | SPR | peptide | pH 7.5, NaCl 100 mM |  | koff | 0.00109 s⁻¹
SRSF1 E143A/D146A/D151A (Homo sapiens) | SRPK1 (Homo sapiens, UniProt Q96SB4) | steady-state kinetics |  |  | relative to: wild-type SRSF1, higher = larger decrease | kcat/Km | 10 fold
EPEPRLWVVPGALPQV (C10ORF99 66-81 (Homo sapiens)) | GPR15 (Homo sapiens, UniProt P49685) | intracellular Ca2+, agonist | peptide, CHO |  | lower = more potent | concentration of peak response | 10 nM
CALM1 holo (Homo sapiens, UniProt P0DP23) | Nos1 (Rattus norvegicus, UniProt P29476) | optical stopped-flow |  | CaM not pre-bound, together with: NADPH, holo CaM |  | heme reduction rate | 18.2 s⁻¹
VPLPAGGGTVLTKMYPRGNHWAVGHLM-NH2 (GRP mature (UniProt P07492); C-terminal amide) | GRPR R287A (Homo sapiens, UniProt P30550) | calcium mobilization | peptide, CHO |  | relative to: wild-type receptor, higher = greater loss | activity decrease | 51 fold
FGF2 (Homo sapiens, UniProt P09038) | FGFR3 isoform IIIc (unknown, UniProt Q61851) | cell proliferation, MTT | BaF3-FGFR3c | 20 nM, 48 h, together with: chondroitin sulfate A 4.9 µg/mL | relative to: FGF 1 with heparin, higher = more proliferation | cell proliferation | 6%
CALM1 (Homo sapiens, UniProt P0DP23) | RYR2 del4077-4080 (Oryctolagus cuniculus, UniProt P30957) | single-channel planar bilayer | liposomes | 1 µM, together with: Ca2+ 2 µM | relative to: no CaM, higher = more open | normalized open probability | 78 % no CaM
B1 (rof 1-84 E17A) | rho 1-419 (Escherichia coli, UniProt P0AG30) | rho termination, inhibitor |  |  | lower = more inhibition | terminated transcripts | 25%
INS mature A and B chains, PEG 5000 on A1 and B29 (Homo sapiens) | Insr (Mus musculus, UniProt P15208) | AKT Ser473 phosphorylation, agonist, HTRF | C2C12 | 30 min |  | EC50 | 3.4 µM
cpSRP43 substrate-binding domain (Arabidopsis thaliana) | HEMA1 mature (Arabidopsis thaliana, UniProt P42804) | heat-induced aggregation, light scattering |  |  | relative to: cpSRP43-FL, higher = weaker chaperone activity | chaperone activity | > 20 fold lower
CYCS (horse, UniProt P00004) | CcP/MBP, two covalent hemes (Shewanella oneidensis) | steady-state kinetics |  | oxidized, MBP-fused, together with: electron donor 4 µM |  | peroxide turnover rate k1 | 1.6 s⁻¹
B2 (STX8) | Kcnk3 (Rattus norvegicus, UniProt O54912) | whole-cell patch clamp | CHO |  | relative to: TASK-1 alone, higher = larger current | current amplitude | 50%
TIMP2 N-terminal domain S4E/N38Q/V71N/H97R/T99S | MMP14 fragment (Homo sapiens) | fluorogenic substrate cleavage, inhibitor, enzyme inhibition assay |  | apparent |  | Ki | 0.00102 µM
PLEKHA3 (Homo sapiens, UniProt Q9HB20) | SACM1L 1-522 (Homo sapiens, UniProt Q9NTJ5) | Sac1 activity | liposomes |  | relative to: artificial tether, higher = more activity | relative phosphatase activity | 10 fold
HSDGTFTSELSRLREGARLQRLL (SCT 1-23 (Homo sapiens)) | SCTR SNAP-tag fusion, Lumi4-Tb label on SNAP-tag (UniProt P47872) | cAMP accumulation, agonist | peptide, CHO-K1 |  |  | EC50 | 0.0034 µM
Vcl (Mus musculus, UniProt Q64727) | Tln1 482-786, SNAP, HaloTag, DNA tethers (Mus musculus, UniProt P26039) | pull-down | lysate |  | relative to: either spring alone, higher = more molecule pulled down | relative pulldown | > 2 fold
ribosomes whole ribosome (Rattus norvegicus) | CRIP3 precursor 22-286 (Zea mays, UniProt P28522) | SPR |  | 60 nM |  | dissociation end response | 10 RU
bradykinin | OppA (Lactococcus lactis) | fluorescence polarisation |  |  |  | IC50 | 6.8 µM and 5.37 µM and 6 µM and 6.3 µM and 7.2 µM and 5.7 µM
B3 | MSH5 (Saccharomyces cerevisiae, UniProt Q12175) | co-IP |  |  | relative to: wild-type cells, higher = lower efficiency | relative complex formation | 2.6 fold
COX6A2 (Bos taurus, UniProt P07471) | cytochrome c oxidase eight-subunit core (Bos taurus, UniProt P00396) | anion exchange chromatography, RP-HPLC, SDS-PAGE |  | 10 min, pH 7.2, room temperature, apparent, single transition fit |  | urea midpoint for subunit dissociation | 3.8 M
Ppp2r5b E153Q (Rattus norvegicus) | GST-TH 31-164, pS40 (UniProt P04177) | Ser40 dephosphorylation | COS, immunoisolated holoenzyme |  | relative to: wild type, higher = less activity | relative dephosphorylation inhibition | 50 % inhibition
B4 (erenumab) | CALCR/RAMP1 on cells (Homo sapiens) | cAMP production, antagonist, Schild analysis | antibody, Cos7 | together with: αCGRP |  | pKB | 7.04
NRTN fragment E135S/R139S (Homo sapiens) | RET 29-635 (Homo sapiens, UniProt P07949) | MAPK signaling, SRE luciferase reporter, agonist | TGW neuroblastoma |  | higher = stronger signal | maximal luciferase signal | 152000 RLU
B5 (UGT1A9) | COc1cc(-c2oc3cc(O)ccc3c(=O)c2O)ccc1O | steady-state kinetics |  | pH 7.4, 37 °C |  | Vmax | 0.00588 µmol/min/mg

Excerpt of the above:
Molecule | target or system | assay | system | conditions | scale | endpoint | value
INS mature A and B chains, PEG 5000 on A1 and B29 (Homo sapiens) | Insr (Mus musculus, UniProt P15208) | AKT Ser473 phosphorylation, agonist, HTRF | C2C12 | 30 min |  | EC50 | 3.4 µM
Ppp2r5b E153Q (Rattus norvegicus) | GST-TH 31-164, pS40 (UniProt P04177) | Ser40 dephosphorylation | COS, immunoisolated holoenzyme |  | relative to: wild type, higher = less activity | relative dephosphorylation inhibition | 50 % inhibition
CALM1 holo (Homo sapiens, UniProt P0DP23) | Nos1 (Rattus norvegicus, UniProt P29476) | optical stopped-flow |  | CaM not pre-bound, together with: NADPH, holo CaM |  | heme reduction rate | 18.2 s⁻¹
